Results from different studies.
Parts stem from different laboratories: compare values within a part only. Changes are numbered by the printed parent chain.

Series 1 — technique: protein-binding microarray; form: double-stranded DNA, one strand shown; matrix: in vitro; tested at: 0.8 µM; setting: whole 60-bp probe, no competitor; direction: higher = stronger binding; constant ends, left off below: … GTCTTGATTCGCTTGACGCTGCTG
Target: Centromere-binding protein 1, full length, N-terminal tag (CBF1, Saccharomyces cerevisiae, UniProt P17106, residues 1-351)
Sequence of UniProt P17106 (whole entry, looked up): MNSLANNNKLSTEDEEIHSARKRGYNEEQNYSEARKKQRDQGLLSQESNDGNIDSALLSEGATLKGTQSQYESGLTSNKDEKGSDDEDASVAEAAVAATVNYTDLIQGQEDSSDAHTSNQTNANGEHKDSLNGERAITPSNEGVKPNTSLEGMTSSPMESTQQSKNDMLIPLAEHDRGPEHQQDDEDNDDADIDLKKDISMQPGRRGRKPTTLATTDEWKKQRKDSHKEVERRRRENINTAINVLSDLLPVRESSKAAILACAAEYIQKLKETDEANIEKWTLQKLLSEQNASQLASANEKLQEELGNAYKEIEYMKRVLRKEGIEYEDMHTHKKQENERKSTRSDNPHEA
Sequence	fluorescence intensity [a.u.]
GAAAATATCTTAATTCACCTGTTTACTATCATGTAG	526
CTAACTGTACATTCACACGGGAAACGAGAGAAATTC	583
CTAGCTTAAAAAGGTCACGTGAAGCTCTATTTTTTC	20300
CTATTCTCACTCGTATACGCAATCATTTAAATATTC	511
CTAATCATAGTACTGATCATGAACCAGGCTCATTTC	484
CTATAACAACACTTATTCGTGGCAAGAACGAAATTC	529
CTAATCTCGCTATGACGCACGCCAGTCAATATTTTC	532
CTAGGGAAGACTCAGCACGTTATATACTATTAATTC	644
CTAATCAGTATTACGCACGTTGGTGCTGTTATATTC	519
CTAGCTTCCCTGCCACACGTTCCGCCTCAGTCGTTC	582
GAAATCTGCGTTACTCACATGTGCAGATATCAGTAG	1250
GAAAAAAATTTCATCCACGCAACTTTTTTTTGGTAG	560
CTATTTTTTAGTGCTGATGTAAGCTTAACAAGATTC	534
CTATCCTTTCTCCATCACATGAGTACGAGGAGGTTC	1180
GAAGTTAAAATCTTGTACGTGCGTGAGATGATGTAG	584
GAAAGATAGCCCTGTCACCAGTATCGGGTGTTGTAG	519
GAATATTGTCATACTGACGTGTACCACTCTGAGTAG	541
CTATATTTTAATCAACACCTGATATTTTCTTGATTC	881
GAATCTGAGTTTTCGCACGTTGCACGAGTCGCATAG	782

Series 2 — technique: DHFR PCA, deep sequencing; matrix: yeast; with: (+)-ABA 17 µM; baseline: wild-type fitted maximum; direction: higher = stronger binding
Target: ABI1, truncated, D143A, DHFR fusion (Arabidopsis thaliana)
Setting: methotrexate growth selection, single substitutions
Starting sequence: PYL1, truncated, DHFR fusion (Arabidopsis thaliana); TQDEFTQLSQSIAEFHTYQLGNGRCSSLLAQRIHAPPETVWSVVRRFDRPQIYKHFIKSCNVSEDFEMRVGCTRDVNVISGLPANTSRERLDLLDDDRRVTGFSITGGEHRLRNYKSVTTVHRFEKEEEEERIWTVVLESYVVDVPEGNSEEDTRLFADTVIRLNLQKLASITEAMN
Change	relative binding score [%]
L112W	4.31
T101L	87.8
Q167A	88.3
F56E	14.9
G148Q	51.1
V70R	48.4
L82A	17.3
S140F	2.9
A84K	3.81
T6V	85.4
I57W	-4.81
T173H	21.1
C25R	-15.4
V78L	89.2
P50F	-9.67
E174N	37.6

Series 3 — technique: RNA Bind-n-Seq; form: RNA; matrix: in vitro; tested at: 365 nM; baseline: no-protein control; direction: higher = stronger binding
Target: RNA binding protein fox-1 homolog 2, RRM domain, GST-SBP tag (RBFOX2, Homo sapiens, UniProt O43251-10, residues 100-194)
Setting: natural RNA segment, single round, ends assumed
Constant ends, left off below: GGGAGUUCUACAGUCCGACGAUC … UGGAAUUCUCGGGUGCCAA
Construct (chain): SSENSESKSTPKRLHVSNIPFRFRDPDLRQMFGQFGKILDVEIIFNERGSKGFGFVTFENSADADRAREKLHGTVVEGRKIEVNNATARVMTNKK
Sequence	RBNS enrichment (R)
CAGGCUGUGCCUUGGUUUCCUGAGCCACCUUUACUCUGCUCUAUGCCAGGCUGUGCUAGCAACACCCAAAGGUGGCCUGCGGGGAGCCAUCACCUAGGACUGACUCGGCA	0.471
GACCACUUCUGUGUAAGUUUCACCUCCAAGUUUUACCUCCUGUGUCUUCCUCUGCUGUCGAGACGUUCCUGUCUGCUUCCCGGGAGCCUCACGUGCUCCUUGUCCUAACC	0.298
UGGAGAGGGCCAGUGCUGCCACUGGUGUGGGGGUCAUUCUUGUGCACCCCCUACUGUGUGCUCCUCUUGUGCACCUACUGUGUGCUUCUUCCGGGGCUUGUUGCCAUUCC	0.438
CUUUCCACCCCUGGAAGAUGGAAAUAAACCUGCGUGUGGGUGGAGUGUUAGGACCAACGGUUUCCUAGGAGUAUGUGGUUUUGCUGUGUGGCCUGUGUCCUGACUCGCAC	2.55
AUUACAGGUGUGAGCCACCGUGCCUGGCCUAAAUAAAUAAUUUCGUAAGCAUAUACAAUCCACUUCCCACUAAGAAUUAGGGUCAAAGACAUUCUAUUUGAACACUUGCA	8.6
CCUUUUUUAUGAUUUUGUAAGUUCCCAUAAGUUGUGUGCACGAGGUUCUGAGAGUGCCCGCAGGCUGCUGCGUCCUGGCCCCUCUGUAGUGGCUGCGGGCGUCUUGGUUG	1.17
CUCCUUGGCCAUUCAUUUUCCUCCAGCCCAUAGCUCUGCCCACUCCAGUGUCAAACACCGCCCAGGCUUUCCAGCUGACCUCUGUUAUCUUGAGAGCUGAGGCUAGGUCC	0.514
UUCUGGAUGUGUUCUCUUACUCCCUCUUACCACCAUACUUUUUGCUCUCUUCUCCUGCAAGCGUAGUCUUCACAGGGAGUGGCUUCCUGACAUUUUUUUCAGUUAUGUGA	0.769

Series 4 — technique: protein-binding microarray; form: double-stranded DNA, one strand shown; matrix: in vitro; tested at: 940 nM top; setting: 60-bp whole probe; with: salmon DNA 0.4 mg/ml; baseline: random background probes; direction: higher = stronger binding; constant ends, left off below: GCCTAGCAC … GTCTTGATTCGCTTGACGCTGCTG
Target: Interferon regulatory factor 5, full length, phosphomimetic (IRF5, Homo sapiens, UniProt Q13568-2, residues 1-514, S451D/S453D/S456D/S462D)
Sequence	fitted relative affinity [z-score]
TTTTTTTTTTTTTTTTTACTGTGCTAG	1.35
TGGGATTTTCCCATGAGTCTGTGCTAG	-0.146
TCATCTCTGTCCCTGTTACTGTGCTAG	1.85
TCAGTCTTCAGGTTCTCACTGTGCTAG	0.442
TCACTTATCCCTAATCTCACTGTGCTA	1.64
TAAATTTTCACGGTGGGTTCGTGCTAG	0.0975
GACGGTATCGACTATCGGGACGTGCTA	4.81
TCAAGTCTAGCCATTGTGACTGTGCTA	-0.441
TTAATGTGTTCTTGGATTCGGTGCTAG	-0.107
ATAGGTCTCGGACTGGGTTAGTGCTAG	1.19
TTAGATATCGGGTATCGAGTAGTGCTA	1.31
TTAGGTTTCGGCTATCGGTTAGTGCTA	10.2
GACCGTTTCGGACTGGGGACGTGCTAG	1.85
GTTGCTCTCTCACCACCTTCGTGCTAG	1.68
GACTGTCTCGGTATCGGGACGTGCTAG	4.53
GGCGATATCGGGTTTCGAGACGTGCTA	2.34
TTTGGACTGCTTATCCTTTAGTGCTAG	-0.134

Some of these lines once more (series 1):
Sequence	fluorescence intensity [a.u.]
GAAGTTAAAATCTTGTACGTGCGTGAGATGATGTAG	584
GAATATTGTCATACTGACGTGTACCACTCTGAGTAG	541
CTAGCTTAAAAAGGTCACGTGAAGCTCTATTTTTTC	20300
CTAGGGAAGACTCAGCACGTTATATACTATTAATTC	644
GAAATCTGCGTTACTCACATGTGCAGATATCAGTAG	1250
